Measured values collected from several papers.
Lines come from different studies, so protocols differ. Numbers after ± are the reported error.
TYMS: Thymidylate synthase (TYMS, Homo sapiens, UniProt P04818)
Sequence of UniProt P04818 (whole entry, looked up): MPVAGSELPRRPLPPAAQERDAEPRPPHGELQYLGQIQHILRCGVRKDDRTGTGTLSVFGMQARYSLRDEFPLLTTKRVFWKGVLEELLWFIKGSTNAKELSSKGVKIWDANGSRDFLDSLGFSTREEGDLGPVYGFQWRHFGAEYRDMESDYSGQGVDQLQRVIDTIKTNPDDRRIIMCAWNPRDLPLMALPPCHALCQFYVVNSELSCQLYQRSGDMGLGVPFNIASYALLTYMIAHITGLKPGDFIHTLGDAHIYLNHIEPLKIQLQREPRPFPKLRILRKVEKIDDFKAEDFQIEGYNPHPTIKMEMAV
TGFBR1: TGF-beta receptor type-1 (TGFBR1, Homo sapiens, UniProt P36897)
Sequence of UniProt P36897 (whole entry, looked up): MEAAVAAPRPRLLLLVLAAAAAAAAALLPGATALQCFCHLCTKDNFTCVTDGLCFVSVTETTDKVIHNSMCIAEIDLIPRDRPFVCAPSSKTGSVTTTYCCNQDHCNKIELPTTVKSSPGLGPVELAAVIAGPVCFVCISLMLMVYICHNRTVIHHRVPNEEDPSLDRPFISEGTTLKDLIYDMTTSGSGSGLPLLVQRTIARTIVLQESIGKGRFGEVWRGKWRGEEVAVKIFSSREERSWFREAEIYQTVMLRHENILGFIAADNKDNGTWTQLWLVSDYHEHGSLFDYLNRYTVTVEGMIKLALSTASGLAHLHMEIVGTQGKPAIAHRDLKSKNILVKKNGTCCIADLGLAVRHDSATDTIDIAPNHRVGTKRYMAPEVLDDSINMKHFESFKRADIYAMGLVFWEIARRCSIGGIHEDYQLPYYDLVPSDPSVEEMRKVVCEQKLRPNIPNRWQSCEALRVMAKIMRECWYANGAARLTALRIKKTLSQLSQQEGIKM
Protein lin-28 homolog A: Protein lin-28 homolog A (Mus musculus, UniProt Q8K3Y3)
Sequence of UniProt Q8K3Y3 (whole entry, looked up): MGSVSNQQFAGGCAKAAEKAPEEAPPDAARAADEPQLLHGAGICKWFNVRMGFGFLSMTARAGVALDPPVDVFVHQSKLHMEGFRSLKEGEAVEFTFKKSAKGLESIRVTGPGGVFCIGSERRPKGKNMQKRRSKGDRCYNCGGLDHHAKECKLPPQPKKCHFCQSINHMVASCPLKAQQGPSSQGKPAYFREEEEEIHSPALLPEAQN
DCN1-like protein 1 PONY domain: DCN1-like protein 1, PONY domain (Homo sapiens, UniProt Q96GG9)
PARP1: Poly [ADP-ribose] polymerase 1 (PARP1, Homo sapiens, UniProt P09874)
Sequence of UniProt P09874 (whole entry, looked up): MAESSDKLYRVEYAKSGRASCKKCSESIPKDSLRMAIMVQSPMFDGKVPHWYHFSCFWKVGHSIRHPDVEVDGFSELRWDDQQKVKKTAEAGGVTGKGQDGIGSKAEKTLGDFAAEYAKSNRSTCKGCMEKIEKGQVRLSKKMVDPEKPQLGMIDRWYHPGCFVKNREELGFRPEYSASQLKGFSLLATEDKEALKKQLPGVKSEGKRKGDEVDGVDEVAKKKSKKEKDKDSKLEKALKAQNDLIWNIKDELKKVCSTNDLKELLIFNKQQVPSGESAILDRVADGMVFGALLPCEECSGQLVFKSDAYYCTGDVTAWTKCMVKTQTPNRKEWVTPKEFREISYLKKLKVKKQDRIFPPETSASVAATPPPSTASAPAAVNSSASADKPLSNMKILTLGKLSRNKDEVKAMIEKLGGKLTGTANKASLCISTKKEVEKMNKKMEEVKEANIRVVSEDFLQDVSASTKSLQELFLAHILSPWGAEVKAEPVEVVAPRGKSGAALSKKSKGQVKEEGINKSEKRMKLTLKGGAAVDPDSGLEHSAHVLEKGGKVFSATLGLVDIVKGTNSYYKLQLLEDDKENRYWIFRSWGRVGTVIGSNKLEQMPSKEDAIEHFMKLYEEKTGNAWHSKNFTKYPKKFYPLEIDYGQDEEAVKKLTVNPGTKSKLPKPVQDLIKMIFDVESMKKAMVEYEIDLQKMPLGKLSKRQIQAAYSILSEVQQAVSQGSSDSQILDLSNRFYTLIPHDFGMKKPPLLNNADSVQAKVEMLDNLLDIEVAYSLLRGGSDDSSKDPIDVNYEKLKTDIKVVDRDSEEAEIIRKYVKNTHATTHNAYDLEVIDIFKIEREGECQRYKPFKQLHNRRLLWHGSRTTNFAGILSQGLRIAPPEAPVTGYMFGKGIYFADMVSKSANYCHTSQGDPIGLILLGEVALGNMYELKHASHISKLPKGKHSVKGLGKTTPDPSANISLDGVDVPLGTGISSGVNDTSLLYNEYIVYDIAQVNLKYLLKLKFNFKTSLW
F11: Coagulation factor XI (F11, Homo sapiens, UniProt P03951)
Sequence of UniProt P03951 (whole entry, looked up): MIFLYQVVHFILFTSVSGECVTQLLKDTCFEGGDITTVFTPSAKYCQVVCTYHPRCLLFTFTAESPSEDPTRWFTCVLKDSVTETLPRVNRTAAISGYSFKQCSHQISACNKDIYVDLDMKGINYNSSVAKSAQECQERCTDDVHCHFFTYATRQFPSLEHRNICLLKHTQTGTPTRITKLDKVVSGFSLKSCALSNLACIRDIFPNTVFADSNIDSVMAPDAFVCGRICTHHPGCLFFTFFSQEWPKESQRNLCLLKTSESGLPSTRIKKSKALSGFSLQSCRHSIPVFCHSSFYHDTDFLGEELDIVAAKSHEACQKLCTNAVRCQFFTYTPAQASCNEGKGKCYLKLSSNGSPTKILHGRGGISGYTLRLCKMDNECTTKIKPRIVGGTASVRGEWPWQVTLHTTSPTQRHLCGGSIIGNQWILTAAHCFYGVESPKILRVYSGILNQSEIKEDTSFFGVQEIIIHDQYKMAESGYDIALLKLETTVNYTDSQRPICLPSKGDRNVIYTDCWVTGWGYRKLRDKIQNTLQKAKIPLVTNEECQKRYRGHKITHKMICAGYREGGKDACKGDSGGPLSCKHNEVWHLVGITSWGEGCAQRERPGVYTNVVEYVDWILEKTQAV
Sequence of UniProt P06396 (whole entry, unmodified, looked up): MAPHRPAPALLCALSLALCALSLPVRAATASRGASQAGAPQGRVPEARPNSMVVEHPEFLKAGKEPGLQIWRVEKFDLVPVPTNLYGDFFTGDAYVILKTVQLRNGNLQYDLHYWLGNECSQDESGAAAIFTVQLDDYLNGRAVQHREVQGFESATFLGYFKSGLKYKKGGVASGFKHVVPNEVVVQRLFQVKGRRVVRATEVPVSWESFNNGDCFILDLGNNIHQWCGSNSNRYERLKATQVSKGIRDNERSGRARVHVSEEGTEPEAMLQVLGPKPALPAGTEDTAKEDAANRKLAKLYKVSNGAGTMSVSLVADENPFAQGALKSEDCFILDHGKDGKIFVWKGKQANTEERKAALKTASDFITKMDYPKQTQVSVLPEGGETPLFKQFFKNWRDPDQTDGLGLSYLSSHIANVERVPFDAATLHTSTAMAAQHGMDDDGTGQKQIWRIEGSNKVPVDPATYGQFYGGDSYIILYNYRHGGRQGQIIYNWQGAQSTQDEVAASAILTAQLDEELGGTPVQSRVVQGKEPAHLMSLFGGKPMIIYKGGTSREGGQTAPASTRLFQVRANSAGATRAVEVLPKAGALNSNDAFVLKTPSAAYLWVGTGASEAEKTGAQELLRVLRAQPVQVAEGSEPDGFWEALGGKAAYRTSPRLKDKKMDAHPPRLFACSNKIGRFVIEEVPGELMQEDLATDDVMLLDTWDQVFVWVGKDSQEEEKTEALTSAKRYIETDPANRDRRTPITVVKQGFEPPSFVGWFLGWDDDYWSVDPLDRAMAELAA
Sequence of UniProt P47985 (whole entry, looked up): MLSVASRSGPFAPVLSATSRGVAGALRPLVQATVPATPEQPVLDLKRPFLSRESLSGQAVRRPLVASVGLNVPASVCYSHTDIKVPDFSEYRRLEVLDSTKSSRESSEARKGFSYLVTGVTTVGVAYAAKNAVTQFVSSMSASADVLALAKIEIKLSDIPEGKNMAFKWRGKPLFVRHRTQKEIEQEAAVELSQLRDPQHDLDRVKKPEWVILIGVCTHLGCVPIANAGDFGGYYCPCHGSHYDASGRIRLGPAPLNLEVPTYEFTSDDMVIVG
Sequence of UniProt P04070 (whole entry, looked up): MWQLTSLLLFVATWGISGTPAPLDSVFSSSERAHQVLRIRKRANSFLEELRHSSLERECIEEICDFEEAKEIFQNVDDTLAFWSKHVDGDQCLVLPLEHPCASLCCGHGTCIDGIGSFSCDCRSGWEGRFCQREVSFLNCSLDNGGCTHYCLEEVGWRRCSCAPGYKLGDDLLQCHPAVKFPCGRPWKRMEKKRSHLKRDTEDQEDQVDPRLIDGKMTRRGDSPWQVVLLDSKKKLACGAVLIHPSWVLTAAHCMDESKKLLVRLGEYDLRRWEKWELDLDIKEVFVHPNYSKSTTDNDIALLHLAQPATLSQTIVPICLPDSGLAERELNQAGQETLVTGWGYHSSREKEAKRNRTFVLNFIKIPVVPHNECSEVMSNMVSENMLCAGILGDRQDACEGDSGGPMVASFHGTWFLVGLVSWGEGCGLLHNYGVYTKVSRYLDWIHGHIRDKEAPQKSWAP
Sequence of UniProt Q96D96 (whole entry, unmodified, looked up): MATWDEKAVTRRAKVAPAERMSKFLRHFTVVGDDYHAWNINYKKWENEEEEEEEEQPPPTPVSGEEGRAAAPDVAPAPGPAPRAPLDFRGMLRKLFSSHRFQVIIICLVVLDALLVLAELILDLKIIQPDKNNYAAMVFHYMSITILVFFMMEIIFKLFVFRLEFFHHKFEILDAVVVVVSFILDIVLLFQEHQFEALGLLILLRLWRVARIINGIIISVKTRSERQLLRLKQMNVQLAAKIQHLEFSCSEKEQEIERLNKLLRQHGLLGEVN
Sequence of UniProt P00156 (whole entry, looked up): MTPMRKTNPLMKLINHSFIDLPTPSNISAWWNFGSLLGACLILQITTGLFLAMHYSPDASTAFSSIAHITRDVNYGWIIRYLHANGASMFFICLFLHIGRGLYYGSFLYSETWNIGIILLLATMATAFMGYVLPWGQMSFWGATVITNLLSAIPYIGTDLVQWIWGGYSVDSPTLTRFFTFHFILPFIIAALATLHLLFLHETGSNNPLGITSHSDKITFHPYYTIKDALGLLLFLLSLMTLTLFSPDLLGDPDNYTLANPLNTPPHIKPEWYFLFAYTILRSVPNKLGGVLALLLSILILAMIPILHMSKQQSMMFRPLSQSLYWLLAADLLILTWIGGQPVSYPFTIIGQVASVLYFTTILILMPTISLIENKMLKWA
Sequence of UniProt O43914 (whole entry, looked up): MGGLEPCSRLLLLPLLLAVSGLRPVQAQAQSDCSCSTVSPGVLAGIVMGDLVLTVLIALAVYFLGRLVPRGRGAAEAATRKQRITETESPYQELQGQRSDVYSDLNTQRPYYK

CCCOC(=O)C1CCN(C(=O)c2ccc(N(C)Cc3cnc4nc(N)nc(N)c4n3)cc2)CC1 — IC50 (TYMS; inhibitor): > 100 µM
Fc1ccc(-c2nc(-c3c(F)cccc3Cl)[nH]c2-c2ccncc2)cc1 — IC50 (TGFBR1; binding, LanthaScreen kinase binding): 0.0415 ± 0.0093 µM
CCN(Cc1cnc2nc(N)nc(N)c2n1)c1ccc(C(=O)c2ccccc2)cc1 — IC50 (TYMS; inhibitor): > 100 µM
Cn1cnc([N+](=O)[O-])c1SCc1csc2ccccc12 — IC50 (Protein lin-28 homolog A): 15.1 µM
C[C@H]1[C@H](OC(=O)CCC(=O)O)O[C@@H]2O[C@@]3(C)CC[C@H]4[C@H](C)CC[C@@H]1[C@@]24OO3 — IC50 (Lymphocyte antigen 96 (LY96, Homo sapiens, UniProt Q9Y6Y9); tryptophan fluorescence quenching; corrected for ligand depletion): 0.407 µM
Fc1ccc(-c2nc(-c3cccnc3)[nH]c2-c2ccncc2)cc1 — IC50 (TGFBR1; binding, LanthaScreen kinase binding): 2.3 ± 0.0356 µM
CCCC(C)N1CCC(N(CCCNC(=O)CCl)C(=O)Nc2cccc(C(F)(F)F)c2)CC1 (stereo not drawn) — IC50 (DCN1-like protein 1 PONY domain; binding, inhibitor, TR-FRET; 24 h, racemic mixture): 7.74 ± 0.039 µM
N=C(N)SCc1ccccc1Cl — IC50 (Protein lin-28 homolog A): 11.2 µM
Nc1ncnc2c1ncn2[C@@H]1O[C@H](COP(=O)(O)OP(=O)(O)OP(=O)(O)O)[C@@H](O)[C@H]1O — IC50 (P2Y receptor rat; binding, radioligand binding): 0.019 µM
CN(Cc1cnc2nc(N)nc(N)c2n1)c1ccc(C(=O)N2CCCCC2)cc1 — IC50 (TYMS; inhibitor): > 100 µM
C[C@H]1C[C@@H](N2C(=N)N[C@](C)(c3cccc(Nc4ccc(C5CC5)nc4)c3Cl)CC2=O)CCO1 — IC50 (Cathepsin D (CTSD, Homo sapiens, UniProt P07339); enzyme activity, inhibitor; ARPE-19): 0.03 µM
[H]/N=C(/N)c1ccc(NCc2nc3cc(C(=O)N(CCC(=O)O)c4ccccn4)ccc3n2C)cc1 — IC50 (Vitamin K-dependent protein C (PROC, Homo sapiens, UniProt P04070)): 1.6 ± 0.1 µM
Cc1cccc(-c2nc(-c3ccc(N)cc3)[nH]c2-c2ccncc2)c1 — IC50 (TGFBR1; binding, LanthaScreen kinase binding): 4.57 ± 1.68 µM
COc1cc(C(=O)NCC2(N(C)C)CCCC2)cc(OC)c1OCc1ccccc1 — IC50 (glycine transporter 2 (Xenopus tropicalis, UniProt A0A7D9NK84, I281V/L621F/M283I); glycine uptake, inhibitor; HEK293F expressing 3-residue mutant; with: [3H]glycine): 0.0577 µM
C/C(=C\CNc1ncnc2[nH]cnc12)CO — IC50 (Gelsolin, peptide (GSN, Homo sapiens, UniProt P06396, D214Y)): 9 ± 7 µM
COc1cc2c(c(OC)c1OC)-c1c(cc(OC)c(OC)c1OC)C[C@H](C)[C@H](C)C2 — IC50 (CYP3A, rat; poziotinib metabolism to M2, inhibitor; rat liver microsomes, 0.3 mg/mL; 30 min, with: poziotinib 5 µM): 12.7 µM
COc1cccc(F)c1-c1nc(-c2ccc(F)cc2)c(-c2ccncc2)[nH]1 — IC50 (TGFBR1; binding, LanthaScreen kinase binding): 0.0891 ± 0.0075 µM
CC(=O)c1n[nH]c2ccc(-c3cnc4ccc(N(C)C5CCOCC5)nn34)cc12 — IC50 (TYRO protein tyrosine kinase-binding protein (TYROBP, Homo sapiens, UniProt O43914); split luciferase reporter; human cells; 6 h, treatment 48 h after induction, with: doxycycline induction): 0.8 ± 0.2 µM
NC(=O)c1cccc2c1O/C(=C\c1ccc(C(=O)N3CCN(c4nc5cc(Cl)ccc5[nH]4)CC3)s1)C2=O — IC50 (PARP1; inhibitor): 0.14 µM
c1coc(CNc2ncnc3[nH]cnc23)c1 — IC50 (Gelsolin, N184K peptide (GSN, Homo sapiens, UniProt P06396); amyloid aggregation, inhibitor, ThT fluorescence; 12 h, 37 °C): 23 ± 1.7 µM
COCc1nn(Cc2ccc(Cn3ccccc3=O)cc2)cc1C(=O)NCc1cc(C)[nH]n1 — IC50 (F11): > 40 µM
Cc1cccc(-c2nc(C(O)C3=CCCCC3)[nH]c2-c2ccncc2)c1 (stereo not drawn) — IC50 (TGFBR1; binding, LanthaScreen kinase binding): 0.549 ± 0.0486 µM
NC(=O)c1cccc2c1O/C(=C\c1ccc(C(=O)NCCc3nc4ccccc4[nH]3)s1)C2=O — IC50 (PARP1; inhibitor): 0.057 µM
C=CC(=O)Nc1cccc(CN(C(=O)Nc2cccc(C(F)(F)F)c2)C2CCN(C(C)CCC)CC2)c1 (stereo not drawn) — IC50 (DCN1-like protein 1 PONY domain; binding, inhibitor, TR-FRET; 24 h, racemic mixture): 0.098 ± 0.04 µM
[Cl-].[Cl-].[Zn+2] — IC50 (Voltage-gated hydrogen channel 1 (HVCN1, Homo sapiens, UniProt Q96D96, E119H); whole-cell voltage clamp; 100 mV, open probability 0.55): 0.61 µM
Nc1nc(N)c2nc(C(=O)NCc3ccccc3)cnc2n1 — IC50 (TYMS; inhibitor): > 100 µM
Cn1cc2c(C(=O)O)ccc(NS(=O)(=O)c3ccc(OCC4CCC4)c(Cl)c3)c2n1 — IC50 (PDE6A/PDE6B (Bos taurus, UniProt P11541+P23439); antagonist; bovine target): > 200 µM
Fc1ccc(-c2nc(-c3ccc4c(c3)OCO4)[nH]c2-c2ccncc2)cc1 — IC50 (TGFBR1; binding, LanthaScreen kinase binding): > 5 µM
COc1c([C@H]2[C@H](C(=O)Nc3ccnc(C(N)=O)c3)O[C@@](C)(C(F)(F)F)[C@H]2C)ccc(F)c1F — IC50 (GABA-gated chloride channel (human); binding): 13 µM
NC(=O)NO — IC50 (MT-CYB/UQCRFS1 (Homo sapiens, UniProt P00156+P47985); oxygen consumption rate, inhibitor, Seahorse XF-96; HCT-116; complex III-driven): > 3000 µM
CCCC(C)N1CCC(N(Cc2cccc(CNC(=O)CCl)c2)C(=O)Nc2cccc(C(F)(F)F)c2)CC1 (stereo not drawn) — IC50 (DCN1-like protein 1 PONY domain; binding, inhibitor, TR-FRET; 24 h, racemic mixture): 0.028 ± 0.038 µM
COC(=O)C1CCN(C(=O)c2ccc(N(CCO)Cc3cnc4nc(N)nc(N)c4n3)cc2)CC1 — IC50 (TYMS; inhibitor): > 100 µM
CCCC(C)N1CCC(N(Cc2ccccc2NC(=O)CC)C(=O)Nc2cccc(C(F)(F)F)c2)CC1 (stereo not drawn) — IC50 (DCN1-like protein 1 PONY domain; inhibitor, TR-FRET; preincubation 24 h): 1.46 ± 0.237 µM
C[C@@H]1CCO[C@H]2Cn3cc(C(=O)NCc4ccc(F)cc4F)c(=O)c(O)c3C(=O)N12 — IC50 (Folate receptor alpha (FOLR1, Homo sapiens, UniProt P15328); folate binding, antagonist, competition; allosteric, partial): ~4.4 µM
NC(=O)c1cccc2c1O/C(=C\c1ccc(C(=O)N3CCN(c4nc5ccccc5[nH]4)CC3)s1)C2=O — IC50 (PARP1; inhibitor): 0.017 µM
Nc1ncnc2c1ncn2[C@@H]1O[C@H](CSCC[C@H](N)C(=O)O)[C@@H](O)[C@H]1O — IC50 (Histone-lysine N-methyltransferase SUV39H2 (SUV39H2, Homo sapiens, UniProt Q9H5I1); enzyme activity, inhibitor; single data points): 55.1 µM
COc1ccnc(CNC(=O)c2cn(Cc3ccc(Cn4ccccc4=O)cc3)nc2C2CC2)c1F — IC50 (F11): > 40 µM
C#Cc1ccc2ccccc2c1 — IC50 (Cytochrome P450 2A13 (Homo sapiens, UniProt Q16696); coumarin 7-hydroxylation; 20 min, pH 7.4, 37 °C, with: coumarin 10 µM): 1.8 µM
Cc1cc(CSC(=N)N)c(C)cc1CSC(=N)N — IC50 (Protein lin-28 homolog A): 14.1 µM
Nc1ncnc2c1ncn2[C@@H]1O[C@H](CO)[C@@H](O)[C@@H]1O — inhibition (THP-1; pyroptotic LDH release; 2 µM, 40 min, with: LPS then nigericin): -14.6%
COC(=O)C1CCN(C(=O)c2ccc(N(Cc3ccccc3)Cc3cnc4nc(N)nc(N)c4n3)cc2)CC1 — IC50 (TYMS; inhibitor): > 100 µM
COCc1nn(Cc2ccc(Cn3ccccc3=O)cc2)cc1C(=O)NCc1nccc(OC(C)C)c1F — IC50 (F11): > 40 µM
CC(C)OC(=O)CCC/C=C\C[C@@H]1[C@@H](CC[C@@H](O)CCc2ccccc2)[C@H](O)C[C@@H]1O — inhibition (THP-1; pyroptotic LDH release; 2 µM, 40 min, with: LPS then nigericin): 2.7%
FC(F)(F)CN1CC(n2cc(Oc3ccn4nc(Cl)cc4n3)cn2)C1 — IC50 (Very long chain fatty acid elongase 3 (Homo sapiens, UniProt Q9HB03); enzyme activity; microsomes): > 10 µM
CC[C@@H]1[C@H](F)C(=O)N[C@@H]1COc1nccc2cc(C(N)=O)c(OC)cc12 — IC50 (Serine/threonine-protein kinase VRK2 (VRK2, Homo sapiens, UniProt Q86Y07); ATP-site probe binding, ActivX profiling; THP-1 cell lysate; Lys2 site): > 5 µM
CN1CCN(c2ccc(Nc3ncc4cc(C#N)c(=O)n(C5CCCC5)c4n3)cc2)CC1 — IC50 (Muscle, skeletal receptor tyrosine-protein kinase (MUSK, Homo sapiens, UniProt O15146)): 2.78 µM
Nc1ccccc1-c1nc(-c2ccc(F)cc2)c(-c2ccncc2)[nH]1 — IC50 (TGFBR1; binding, LanthaScreen kinase binding): > 5 µM
Cc1cc(CN=C(N)NC(N)=S)c(C)cc1CN=C(N)NC(N)=S — IC50 (Protein lin-28 homolog A): 4.2 µM
NC(=O)c1cccc2c1O/C(=C\c1ccc(C(=O)N[C@H]3CCNC3)s1)C2=O — IC50 (PARP1; inhibitor): 0.092 µM
Fc1ccc(-c2nc(-c3ccc4ccccc4c3)[nH]c2-c2ccncc2)cc1 — IC50 (TGFBR1; binding, LanthaScreen kinase binding): > 5 µM
O=C(O)c1cc2cccc([N+](=O)[O-])c2[nH]1 — IC50 (Protein lin-28 homolog A): 7.9 µM

A few entries again:
C[C@H]1C[C@@H](N2C(=N)N[C@](C)(c3cccc(Nc4ccc(C5CC5)nc4)c3Cl)CC2=O)CCO1 — IC50 (Cathepsin D (CTSD, Homo sapiens, UniProt P07339); enzyme activity, inhibitor; ARPE-19): 0.03 µM
[H]/N=C(/N)c1ccc(NCc2nc3cc(C(=O)N(CCC(=O)O)c4ccccn4)ccc3n2C)cc1 — IC50 (Vitamin K-dependent protein C (PROC, Homo sapiens, UniProt P04070)): 1.6 ± 0.1 µM
Cc1cccc(-c2nc(-c3ccc(N)cc3)[nH]c2-c2ccncc2)c1 — IC50 (TGFBR1; binding, LanthaScreen kinase binding): 4.57 ± 1.68 µM
COc1cc(C(=O)NCC2(N(C)C)CCCC2)cc(OC)c1OCc1ccccc1 — IC50 (glycine transporter 2 (Xenopus tropicalis, UniProt A0A7D9NK84, I281V/L621F/M283I); glycine uptake, inhibitor; HEK293F expressing 3-residue mutant; with: [3H]glycine): 0.0577 µM
C/C(=C\CNc1ncnc2[nH]cnc12)CO — IC50 (Gelsolin, peptide (GSN, Homo sapiens, UniProt P06396, D214Y)): 9 ± 7 µM
COc1cc2c(c(OC)c1OC)-c1c(cc(OC)c(OC)c1OC)C[C@H](C)[C@H](C)C2 — IC50 (CYP3A, rat; poziotinib metabolism to M2, inhibitor; rat liver microsomes, 0.3 mg/mL; 30 min, with: poziotinib 5 µM): 12.7 µM
COc1cccc(F)c1-c1nc(-c2ccc(F)cc2)c(-c2ccncc2)[nH]1 — IC50 (TGFBR1; binding, LanthaScreen kinase binding): 0.0891 ± 0.0075 µM
CC(=O)c1n[nH]c2ccc(-c3cnc4ccc(N(C)C5CCOCC5)nn34)cc12 — IC50 (TYRO protein tyrosine kinase-binding protein (TYROBP, Homo sapiens, UniProt O43914); split luciferase reporter; human cells; 6 h, treatment 48 h after induction, with: doxycycline induction): 0.8 ± 0.2 µM
